Assay results gathered from unrelated publications.
A part holds a random share of what one study measured.

Series 1 — method: competition protein-binding microarray; molecule type: double-stranded DNA, one strand shown; sample: in vitro; tested at: 2 µM; added: Pho4 competitor, 0.05 µM; direction: higher = stronger binding
Target: Centromere-binding protein 1, full length, His-tagged (CBF1, Saccharomyces cerevisiae, UniProt P17106, residues 1-351)
UniProt P17106, sequence (whole entry, looked up): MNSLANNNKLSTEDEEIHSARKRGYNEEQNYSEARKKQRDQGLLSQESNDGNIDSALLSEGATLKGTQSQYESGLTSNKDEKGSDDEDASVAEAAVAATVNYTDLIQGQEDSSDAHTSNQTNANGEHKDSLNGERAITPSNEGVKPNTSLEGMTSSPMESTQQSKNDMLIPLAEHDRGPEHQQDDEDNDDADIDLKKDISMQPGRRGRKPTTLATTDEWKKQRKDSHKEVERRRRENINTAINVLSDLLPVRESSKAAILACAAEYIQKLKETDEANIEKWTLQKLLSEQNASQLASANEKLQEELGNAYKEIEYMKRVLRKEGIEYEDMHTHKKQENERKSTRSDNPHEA
Setting: whole 60-bp probe, lowest competitor level
Oligonucleotide	fluorescence intensity [a.u.]
CGGGGTTAAGTTTGAGCGGTGGGTGGCTTGCAGCAGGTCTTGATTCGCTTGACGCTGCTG	54.1
CGGGGTTAAGTTTGGCCTGTGGGTGGCTTGCAGCAGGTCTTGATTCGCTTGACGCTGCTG	53.2
TTGCATATTGTTACCCACGGCTTCTAGCAACATGGAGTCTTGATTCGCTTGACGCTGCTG	59
AAGTGCCGGAGGCTCAGCGTGACGGTGCAGATAGGTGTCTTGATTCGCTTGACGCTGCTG	84.9
AAACAATTGGACGGCCACGTGGCCGCTCATGTAAGGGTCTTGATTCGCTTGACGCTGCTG	1360

Series 2 — method: universal PBM; molecule type: double-stranded DNA, one strand shown; sample: in vitro; tested at: not given; direction: higher = stronger binding
Target: Sal-like protein 4, full length isoform B (SALL4, Homo sapiens, UniProt Q9UJQ4-2, residues 1-616)
Setting: 8-mer, flanks averaged, mean of replicates
Oligonucleotide	E-score
ACATCCTC	-0.0938
CAAGACGG	-0.229
GGGATCCC	-0.331
ACCTAACA	0.0413
CTCGTGTC	-0.174
GCGGTTAC	-0.0843

Series 3 — method: RNA Bind-n-Seq; molecule type: RNA; sample: in vitro; tested at: 365 nM; relative to: no-protein control; direction: higher = stronger binding
Target: RNA binding protein fox-1 homolog 2, RRM domain, GST-SBP tag (RBFOX2, Homo sapiens, UniProt O43251-10, residues 100-194)
Setting: natural RNA segment, single round, ends assumed
Construct (chain): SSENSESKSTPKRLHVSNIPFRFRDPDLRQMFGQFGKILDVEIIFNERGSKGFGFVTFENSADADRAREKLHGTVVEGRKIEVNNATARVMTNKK
Oligonucleotide	RBNS enrichment (R)
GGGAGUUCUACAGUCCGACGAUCAGUCGGGAACAUGUCCAUUCUACCUCAGGGUUGGGUGGUGCGAGGCCAAGCCAGGCCUGGCUGUGUCUGUAGUCAUUUGCCCUCUCAUUCGGCCUAUAUCUGACCAUUAGUGGAAUUCUCGGGUGCCAA	0.191
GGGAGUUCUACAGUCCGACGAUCUCCCAGUUUGUCCUUUCUUGUCCAUACCUACACACACCUGCAGCGGGGGUCUGGGGAACAUGUGGGCUAUGGCUCUGCUACCCCGUAGGACACACUGGGUCACUGGCAUGUGGAAUUCUCGGGUGCCAA	1.22
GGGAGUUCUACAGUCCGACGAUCCCCAGCCGGUUUGGAUUACAGGCCUGUGCUGGAACAUCAUCUCAGUUGGCCACCUUCCUGGCAGGCUGUAGACCUGACAUUUUGAGACAAGCCUAGAGGAGUCAGGAGCAUGGAAUUCUCGGGUGCCAA	2.53
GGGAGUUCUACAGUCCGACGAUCUUUAAAUGAAGAGGGGAAUAAACAAGUUGACAGACUCAGGAAUGUAAACAGACAAGGAAGAUAUCCUCUGUACCAGUGAUGUCCUGCCCCCAGUGCAUUUCUUCACAGUGUGGAAUUCUCGGGUGCCAA	0.584
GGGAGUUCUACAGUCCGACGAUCAAAAACAAUUUUUUUCAUAACAUAAUUCCCAUUUUUAUUUAUUUUGAGUCACUCAUAAUUAAUUGCCAAAAAAGCAUUUUAUACAUUGAGUUGGGGGGUAGUGGAUCUUAUGGAAUUCUCGGGUGCCAA	0.677
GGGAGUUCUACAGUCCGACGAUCGGGCGAACCGUUUUCGCUCGUGUGUCUGUACGCAGCAUGUUGGGAUCGGGAGUUUCGGCACAGACUAUCCCAUCAAGCCGUUGGCUCCUUUCAGCUACUACGUUACCACGUGGAAUUCUCGGGUGCCAA	0.358
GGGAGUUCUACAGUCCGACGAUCUUGGUACUUUUCCCGGAAACUAUGUCAAAAGGCUUGACUCACCUCACUCCUACUUUAUGCCACAUUUCAGCCACACAUCUGCAUUAACCCACCUGAAACAUCCCAGCAGGUGGAAUUCUCGGGUGCCAA	1.73
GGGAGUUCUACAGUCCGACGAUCACAAAACAUAUAAAAGUAACAGAAUCUAGCUGGGCUAUGGUGGGACACAGCUUUAAUCUCAGGAACCAGAGACUGGUUGGUUUUUUGUUGUUUGUUGUUUCUUUUGGUUGUGGAAUUCUCGGGUGCCAA	0.497

Other studies, line by line
Molecule	target	test	test system	setting	how to read	endpoint	value
PhoQ, residues 284 288 289 292 302 303 SSCCRF	PhoP, residues 12 14 15 18 19 NMSFL (Escherichia coli, UniProt P23836)	Sort-seq, refers to: YFP reporter	E. coli	PhoQ-PhoP variant library, added: 10 µM Mg2+	relative to: high Mg2+ state, higher = stronger signaling	fold induction	10.2

Excerpt of the above (series 2):
Oligonucleotide	E-score
GGGATCCC	-0.331
ACCTAACA	0.0413
